Assay results gathered from unrelated publications.
Numbers after ± are the reported error.

NC(=S)NNC(=O)c1cc2c(ccc3ccccc32)oc1=O has an IC50 of 31.6 µM (EA.hy 926; cell growth or viability, SRB; 72 h).
With Cc1ccc(NC(=O)c2c(C)oc3ccc(O)c(CN4CCCCCC4)c23)cc1 the IC50 was 6.5 µM (KMS-12-PE; cell growth or viability, MTS; 72 h).
With C=C[C@H](OC(C)=O)c1ccc(OC(C)=O)cc1 the IC50 was over 50 µM (HMEC; MTT; 24 h).
CCCC[C@@H]1NC(=O)CN(S(C)(=O)=O)CCNC(=O)[C@H](CCCCN)NC(=O)[C@H](CC(C)C)NC(=O)[C@H](CCCCN)NC(=O)[C@H](CC(C)C)NC(=O)[C@H](CCCCN)NC(=O)CN(S(C)(=O)=O)CCNC(=O)[C@H](Cc2c[nH]c3ccccc23)NC(=O)[C@H](Cc2ccc(O)cc2)NC(=O)[C@H](C(C)C)NC(=O)[C@H](C(C)C)NC1=O has an IC50 of 2.9 µM (NCI-H929; viability, TO-PRO-3 staining, flow cytometry).
For CC1(C)Cc2c(-c3ccccc3)c(-c3ccc(Cl)cc3)c(CC(=O)O)n2C1, the IC50 was 0.53 µM (THP-1-derived macrophages; LTB4 production; with: LPS).
CC1(C)CCCC(C)(C2CCC3(C)C2C(O)CC2C4(C)CCC(OC(=O)C=Cc5ccccc5)C(C)(C)C4C(OC(=O)C=Cc4ccccc4)CC23C)O1 (centres unmarked) gave an IC50 of over 30 µM (Hep3B; HRE reporter gene, inhibitor; 24 h, hypoxia).
C=CC(=O)N1C[C@H](C)N(c2nc(OC[C@@]34CCCN3C[C@H](F)C4)nc3c(F)c(-c4ccc(F)c5sc(N)c(C#N)c45)c(C(F)(F)F)cc23)C[C@H]1C gave an IC50 of over 10 µM (NRAS wild-type-driven mouse embryonic fibroblasts; refers to: pERK).
For COc1ccc(S(=O)(=O)Nc2ccc(CCCC(=O)O[C@H]3c4cc5c(cc4[C@@H](c4cc(OC)c(OC)c(OC)c4)[C@H]4C(=O)OC[C@@H]43)OCO5)cc2)cc1, the IC50 was 17.1 µM (NCI-H446; cell growth or viability, CCK-8; 24 h).
For COc1cc(CN2CCN(c3ccccc3Cl)CC2)c2cc3[n+](cc2c1O)CCc1cc2c(cc1-3)OCO2, the IC50 was 4.35 µg/mL (Ca-Ski; cell growth or viability, SRB; 48 h).
COc1ccc(C=CC(=O)OC2CC3(C)C(CC(O)C4C(C5(C)CCCC(C)(C)O5)CCC43C)C3(C)CCC(OC(=O)C=Cc4ccc(OC)cc4)C(C)(C)C23)cc1 (centres unmarked) gave an IC50 of over 30 µM (Hep3B; HRE reporter gene, inhibitor; 24 h, hypoxia).
The IC50 of O=C1/C(=C(\O)CCc2ccccc2)C(=O)[C@@]2(C(=O)OC3CCCCC3)CS[C@H](c3ccccc3)N12 is reported as 15.6 µg/mL (MDCK; cell growth or viability, resazurin).
The IC50 of CCCC[C@@H]1NC(=O)CN(S(C)(=O)=O)CCNC(=O)[C@H](CCCCN)NC(=O)[C@H](CC(C)C)NC(=O)[C@H](CCCCN)NC(=O)[C@H](CC(C)C)NC(=O)[C@H](CCCCN)NC(=O)CN(S(C)(=O)=O)CCNC(=O)[C@H](Cc2c[nH]c3ccccc23)NC(=O)[C@H](CO)NC(=O)[C@H](C(C)C)NC(=O)[C@H](C(C)C)NC1=O is reported as 2.6 µM (NCI-H929; viability, TO-PRO-3 staining, flow cytometry).
COC(=O)CCC(=O)[O][Pt-2]1([OH])([Cl])([Cl])[NH2+]CC[N+]1(C)C has an IC50 of 34.3 ± 1.2 µM (P31; cell viability, EZ4U; 96 h).
For C=CC(=O)N1CCCC(n2c(=O)c3ncccc3n(Cc3ccc(Oc4ccccc4)cc3)c2=O)C1 (centres unmarked), the IC50 was 0.5 µM (RPMI-8226 bortezomib-resistant; cell proliferation, MTT; 72 h).
The IC50 of Cc1c(OCc2ccccc2)c(=O)ccn1CCCOC(=O)c1cccc(Cl)c1 is reported as 59 µg/mL (fibroblast cells; cell viability, MTT; 48 h).
With COc1cccc(/C=N/NC(=O)COc2ccc(/C=N/NC(=O)C(C)c3ccc(CC(C)C)cc3)cc2)c1O (centres unmarked) the IC50 was 122.5 ± 0.14 µM (U87 MG; cytotoxicity, MTT).
The IC50 of COc1ccc(/C=C\C(=O)OC2CC3(C)C(CC(O)C4C(C5(C)CCCC(C)(C)O5)CCC43C)C3(C)CCC(O)C(C)(C)C23)cc1 (centres unmarked) is reported as 15.6 µM (Hep3B; HRE reporter gene, inhibitor; 24 h, hypoxia).
CCOC(=O)c1csc2nc(-c3cccc(NC(=O)c4cc5cc(NC(=O)c6ccco6)ccc5n4Cc4ccc(C(F)(F)F)cc4)c3)cn12 has an IC50 of 4.71 µM (RAW264.7; IL-6 release, inhibitor, ELISA; 24 h, LPS-stimulated).
The IC50 of COc1ccc(CCC(=O)c2c(O)cc(OC)cc2O)cc1 is reported as 11 µM (human cells; NF-κB reporter gene, inhibitor; with: TNF-alpha).
CN(C)CCCO/N=C1/C=C2CCC3C(CC[C@]4(C)/C(=C/c5ccccn5)CCC34)[C@@]2(C)CC1 (some centres unmarked) has an IC50 of 13.9 µM (CEM; cytotoxicity, alamarBlue; 72 h).
With CC1(C)CCCC(C)(C2CCC3(C)C2C(O)CC2C4(C)CCC(O)C(C)(C)C4C(OC(=O)/C=C\c4ccccc4)CC23C)O1 (centres unmarked) the IC50 was 2.39 ± 0.12 µM (Hep3B; HRE reporter gene, inhibitor; 24 h, hypoxia).
Brc1ccc(Nc2nc(NN=Cc3c[nH]c4ccccc34)nc(-n3ccnc3)n2)cc1 gave an IC50 of 1.6 µM (SK-BR-3; cell growth or viability, SRB; 5 days).
With COc1ccc(OC)c(C(c2c[nH]c3ccccc23)c2c[nH]c3ccccc23)c1 the IC50 was 8.17 µM (B16; cell growth or viability, MTT; 24 h).
With [Cl][Pd-]1([Cl])[S]C(Nc2ccccc2)=N[N+]1=Cc1cccs1 the IC50 was over 100 µM (MDCK; cell proliferation).
N[C@@H](CCC(=O)N[C@@H](CS[Se]Cc1ccc(-c2cc(C(F)(F)F)nn2-c2ccc(S(N)(=O)=O)cc2)cc1)C(=O)NCC(=O)O)C(=O)O gave an IC50 of 14.2 ± 1.2 µM (UACC-903 melanoma cells; cell viability, MTS; 72 h, metastatic stage).
The IC50 of C#CCOc1ccc(C(=O)c2ccc(NC(=O)C(=O)NCCc3ccc(O)cc3)cc2)cc1 is reported as 0.003 to 0.015 µM (NSCLC cell lines; cell viability; range over eight lines).
For COc1c(OCCCCN2CCCC2)cc(O)c2c(=O)cc(-c3ccccc3)oc12, the IC50 was 17.6 µM (KBM5; cell growth or viability, CCK-8).
With COc1cc(CC(=O)N2CC(=O)N[C@@H](Cc3ccccc3)CN(C(=O)Cc3ccc4ccccc4c3)CC(=O)N[C@@H](CCCCN)CN(C(=O)Cc3ccc4c(c3)OCO4)CC(=O)N[C@@H](CCCCN)CN(CC(N)=O)C(=O)CCSCc3ccc(cc3)C(=O)N[C@@H](CC(C)C)C2)cc(OC)c1 the IC50 was 17.9 µM (SK-BR-3; cell proliferation, CCK-8; 72 h, reduced serum, with: EGF 100 ng/mL).
Clc1ccc(NN=C(c2ccccc2)c2ccccn2)nc1 has an IC50 of 0.1 µM (NCI-H358).
The IC50 of C[C@]12CC/C(=N\OCCN3CCCC3)C=C1CCC1C2CC[C@]2(C)/C(=C/c3ccccn3)CCC12 (some centres unmarked) is reported as 30.4 µM (CEM; cytotoxicity, alamarBlue; 72 h).
The IC50 of CCC(C)C1OC(=O)C(C)(C)C(=O)C(Cc2ccccc2)OC(=O)C(C(C)C)OC(=O)C(NC(=O)c2cccc(O)c2)C(C)OC1=O (centres unmarked) is reported as over 20 µM (SGC-7901/DDP cisplatin-resistant; cell viability, CCK-8; 72 h).
The IC50 of CCCC[C@@H]1NC(=O)CN(S(C)(=O)=O)CCNC(=O)[C@H](CCCCN)NC(=O)[C@H](CC(C)C)NC(=O)[C@H](CCCCN)NC(=O)[C@H](CC(C)C)NC(=O)[C@H](CCC(N)=O)NC(=O)COC[C@H]2CCCN2C(=O)[C@H](Cc2c[nH]c3ccccc23)NC(=O)[C@H](C)NC(=O)[C@H](C(C)C)NC(=O)[C@H](C(C)C)NC1=O is reported as 38.4 µM (NCI-H929; viability, TO-PRO-3 staining, flow cytometry).
CC[C@H](C(=O)N1CCCC[C@H]1C(=O)O[C@H](CCc1ccc(OC)c(OC)c1)c1cccc(OCC(=O)NCCOCCOCCN(C)C/C=C/C(=O)Nc2cc3c(Nc4ccc(F)c(Cl)c4)ncnc3cc2OC)c1)c1cc(OC)c(OC)c(OC)c1 gave an IC50 of 1.26 µM (NCI-H1975 expressing FKBP12F36V-PTPN2; cell viability, CellTiter-Glo; 6 days).
With Cn1cc(-c2cc(N3CCCCS3(=O)=O)ccc2N[C@H]2CC[C@H](C)CC2)c2cc[nH]c2c1=O (stereo in doubt) the IC50 was 0.00063 µM (Light2 cells expressing SMO^W535L; GLI-luciferase reporter, inhibitor, refers to: SMO^W535L).
The IC50 of COc1cccc(-c2ccc(Nc3ccc(CN(C)C)cc3)c(OC)c2F)c1 is reported as 12.6 µM (NCI-H358; cell growth or viability, ATP luminescence; 72 h).
COc1cc(CN2CCN(c3ccc(C(F)(F)F)cc3)CC2)c2cc3[n+](cc2c1O)CCc1cc2c(cc1-3)OCO2 has an IC50 of 4.82 µg/mL (Ca-Ski; cell growth or viability, SRB; 48 h).
The IC50 of C=CC(OC(C)=O)c1cc(OC)cc(OC)c1 (centres unmarked) is reported as over 50 µM (HMEC; MTT; 24 h).
For COc1ccc(N2C(=O)C=CC2=O)cc1, the IC50 was 12.5 µg/mL (HT-22; cell growth or viability, MTT; 24 h).
For C=C1C(=O)OC2C1CCC1(C)CC1CCC1(C)OC21 (centres unmarked), the IC50 was 6.4 ± 2.1 µM (B117H murine AML, cytarabine-resistant; cell growth, inhibitor).
O=[N+]([O-])c1ccc(NC2=N[N+](=Cc3cccs3)[Pt-]([Cl])([Cl])[S]2)cc1 gave an IC50 of over 100 µM (MDCK; cell proliferation).
The IC50 of O=C(NO)c1ccc(Nc2cnc3ccccn23)cc1 is reported as 4.61 µM (CAL-27; cell growth or viability, MTT).
C=C(C)[C@@H]1CC[C@]2(C(=O)O)CC[C@]3(C)[C@H](CC[C@@H]4[C@@]5(C)CC[C@H](O[C@@H]6O[C@@H](C)[C@H](OC)[C@@H](O)[C@H]6O)C(C)(C)[C@@H]5CC[C@]43C)[C@@H]12 gave an IC50 of 4.3 µM (DLD-1; cell growth or viability, fluorescence; 48 h).
For CCC(CC)c1nc(-c2ccc(O)cc2O)cs1, the IC50 was 6.54 µM (HPNE; cell growth or viability, resazurin; 72 h).
With COc1cc(O)c(C(=O)/C=C/c2ccc(O)cc2)c(OC)c1 the IC50 was 7.94 µM (human cells; NF-κB reporter gene, inhibitor; with: TNF-alpha).
With CCc1n(CC(=O)O[C@@H]2C[C@H](C)CC[C@H]2C(C)C)c2ccccc2[n+]1C the IC50 was 1.87 µM (Daoy; cell viability; with: cyclosporin A 1 µM).
FC(F)(F)c1n[nH]cc1-c1nc2ccc3[nH]ncc3c2c2c1CCC2 gave an IC50 of 0.0458 µM (MOLM-14; cell growth or viability, resazurin; 72 h).
With CC1(C)CCCC(C)(C2CCC3(C)C2C(O)CC2C4(C)CCC(OC(=O)C=Cc5ccc(Cl)cc5)C(C)(C)C4C(OC(=O)C=Cc4ccc(Cl)cc4)CC23C)O1 (centres unmarked) the IC50 was over 30 µM (Hep3B; HRE reporter gene, inhibitor; 24 h, hypoxia).
The IC50 of Cc1ccc2ncc(Nc3ccc(C(=O)NO)cc3)n2c1 is reported as 4.21 µM (CAL-27; cell growth or viability, MTT).
For CC(C)[C@H](NC(=O)OC(C)(C)C)C(=O)OC1CC2(C)C(CC(O)C3C(C4(C)CCCC(C)(C)O4)CCC32C)C2(C)CCC(O)C(C)(C)C12 (some centres unmarked), the IC50 was 0.54 ± 0.09 µM (Hep3B; HRE reporter gene, inhibitor; 24 h, hypoxia).
CC(C)=CCc1c2c(c(O)c3c(=O)c(-c4ccc(O)cc4O)coc13)C=CC(C)(C)O2 gave an IC50 of 26.7 µM (Huh-7; cell growth or viability, MTT; 24 h).

Repeated from above:
Clc1ccc(NN=C(c2ccccc2)c2ccccn2)nc1 has an IC50 of 0.1 µM (NCI-H358).
With COc1cc(O)c(C(=O)/C=C/c2ccc(O)cc2)c(OC)c1 the IC50 was 7.94 µM (human cells; NF-κB reporter gene, inhibitor; with: TNF-alpha).
CC1(C)CCCC(C)(C2CCC3(C)C2C(O)CC2C4(C)CCC(OC(=O)C=Cc5ccccc5)C(C)(C)C4C(OC(=O)C=Cc4ccccc4)CC23C)O1 (centres unmarked) gave an IC50 of over 30 µM (Hep3B; HRE reporter gene, inhibitor; 24 h, hypoxia).
